Published values from different studies.
Each numbered part is a random draw from the data of one study; scales do not carry over between parts. Substitutions count along the parent as printed.
UniProt P15056, sequence (whole entry, looked up): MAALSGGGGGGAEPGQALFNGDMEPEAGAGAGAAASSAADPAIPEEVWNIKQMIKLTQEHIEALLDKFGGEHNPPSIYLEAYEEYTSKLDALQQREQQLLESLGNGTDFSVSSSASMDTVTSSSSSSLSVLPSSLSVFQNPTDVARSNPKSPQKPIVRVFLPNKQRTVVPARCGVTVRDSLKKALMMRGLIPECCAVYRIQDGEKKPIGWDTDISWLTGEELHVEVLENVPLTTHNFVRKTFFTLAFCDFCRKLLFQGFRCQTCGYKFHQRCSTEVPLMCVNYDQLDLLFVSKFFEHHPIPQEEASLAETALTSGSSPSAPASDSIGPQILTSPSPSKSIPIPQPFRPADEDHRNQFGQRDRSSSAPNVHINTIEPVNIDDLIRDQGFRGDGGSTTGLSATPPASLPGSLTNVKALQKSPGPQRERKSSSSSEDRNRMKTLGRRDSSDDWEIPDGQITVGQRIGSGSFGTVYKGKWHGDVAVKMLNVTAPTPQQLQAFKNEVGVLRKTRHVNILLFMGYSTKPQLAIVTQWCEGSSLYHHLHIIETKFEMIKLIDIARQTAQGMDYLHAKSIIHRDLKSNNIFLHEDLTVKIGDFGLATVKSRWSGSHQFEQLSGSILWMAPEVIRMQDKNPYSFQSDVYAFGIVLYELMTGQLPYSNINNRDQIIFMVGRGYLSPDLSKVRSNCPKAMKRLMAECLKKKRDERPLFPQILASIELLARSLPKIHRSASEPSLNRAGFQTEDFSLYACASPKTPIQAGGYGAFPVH
UniProt O43683, sequence (whole entry, looked up): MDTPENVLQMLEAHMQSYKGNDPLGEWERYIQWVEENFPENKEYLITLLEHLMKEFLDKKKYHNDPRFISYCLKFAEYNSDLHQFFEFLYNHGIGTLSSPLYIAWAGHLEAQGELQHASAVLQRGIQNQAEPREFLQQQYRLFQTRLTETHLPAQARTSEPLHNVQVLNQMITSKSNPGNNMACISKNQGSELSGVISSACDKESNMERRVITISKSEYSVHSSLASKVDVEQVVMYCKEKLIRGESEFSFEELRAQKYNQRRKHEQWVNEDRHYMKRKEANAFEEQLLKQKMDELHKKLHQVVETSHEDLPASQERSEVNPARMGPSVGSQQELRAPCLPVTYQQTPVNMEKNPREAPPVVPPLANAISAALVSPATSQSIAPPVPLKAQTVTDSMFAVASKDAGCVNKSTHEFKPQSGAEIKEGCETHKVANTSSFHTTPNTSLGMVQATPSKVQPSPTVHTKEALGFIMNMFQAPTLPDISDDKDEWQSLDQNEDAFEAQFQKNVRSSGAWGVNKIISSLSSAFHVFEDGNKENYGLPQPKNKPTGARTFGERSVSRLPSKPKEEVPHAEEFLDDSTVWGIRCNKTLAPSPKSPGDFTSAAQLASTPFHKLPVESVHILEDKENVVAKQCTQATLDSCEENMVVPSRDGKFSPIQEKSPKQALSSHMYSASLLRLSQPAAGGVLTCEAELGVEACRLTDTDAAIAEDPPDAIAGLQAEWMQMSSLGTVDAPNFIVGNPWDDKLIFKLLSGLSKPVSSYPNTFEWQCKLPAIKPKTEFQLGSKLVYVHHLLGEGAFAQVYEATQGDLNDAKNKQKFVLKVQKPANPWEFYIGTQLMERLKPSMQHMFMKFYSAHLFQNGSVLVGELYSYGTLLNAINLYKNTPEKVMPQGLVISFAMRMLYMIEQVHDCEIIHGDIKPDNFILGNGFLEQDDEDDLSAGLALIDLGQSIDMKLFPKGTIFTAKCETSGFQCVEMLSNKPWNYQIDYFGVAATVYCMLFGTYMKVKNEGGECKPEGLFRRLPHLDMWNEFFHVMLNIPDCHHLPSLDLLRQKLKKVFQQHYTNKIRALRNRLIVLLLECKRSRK
UniProt P53667, sequence (whole entry, looked up): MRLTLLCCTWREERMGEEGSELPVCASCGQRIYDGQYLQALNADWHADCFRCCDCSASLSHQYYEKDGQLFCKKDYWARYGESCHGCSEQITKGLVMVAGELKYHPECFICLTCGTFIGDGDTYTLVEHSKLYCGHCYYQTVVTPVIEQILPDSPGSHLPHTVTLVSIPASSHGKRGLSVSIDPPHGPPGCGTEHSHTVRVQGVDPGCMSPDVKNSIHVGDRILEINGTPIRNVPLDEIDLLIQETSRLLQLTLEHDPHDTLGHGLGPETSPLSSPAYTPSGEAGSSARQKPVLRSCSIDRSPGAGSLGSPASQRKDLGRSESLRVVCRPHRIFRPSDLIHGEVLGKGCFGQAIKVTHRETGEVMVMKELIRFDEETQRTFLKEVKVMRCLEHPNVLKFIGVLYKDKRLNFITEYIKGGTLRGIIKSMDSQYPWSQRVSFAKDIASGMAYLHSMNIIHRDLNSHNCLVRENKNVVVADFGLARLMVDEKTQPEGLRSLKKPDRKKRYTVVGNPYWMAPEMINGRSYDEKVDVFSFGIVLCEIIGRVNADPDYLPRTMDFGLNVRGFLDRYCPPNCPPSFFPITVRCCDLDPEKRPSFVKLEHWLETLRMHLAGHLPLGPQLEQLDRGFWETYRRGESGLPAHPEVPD
UniProt Q92918, sequence (whole entry, looked up): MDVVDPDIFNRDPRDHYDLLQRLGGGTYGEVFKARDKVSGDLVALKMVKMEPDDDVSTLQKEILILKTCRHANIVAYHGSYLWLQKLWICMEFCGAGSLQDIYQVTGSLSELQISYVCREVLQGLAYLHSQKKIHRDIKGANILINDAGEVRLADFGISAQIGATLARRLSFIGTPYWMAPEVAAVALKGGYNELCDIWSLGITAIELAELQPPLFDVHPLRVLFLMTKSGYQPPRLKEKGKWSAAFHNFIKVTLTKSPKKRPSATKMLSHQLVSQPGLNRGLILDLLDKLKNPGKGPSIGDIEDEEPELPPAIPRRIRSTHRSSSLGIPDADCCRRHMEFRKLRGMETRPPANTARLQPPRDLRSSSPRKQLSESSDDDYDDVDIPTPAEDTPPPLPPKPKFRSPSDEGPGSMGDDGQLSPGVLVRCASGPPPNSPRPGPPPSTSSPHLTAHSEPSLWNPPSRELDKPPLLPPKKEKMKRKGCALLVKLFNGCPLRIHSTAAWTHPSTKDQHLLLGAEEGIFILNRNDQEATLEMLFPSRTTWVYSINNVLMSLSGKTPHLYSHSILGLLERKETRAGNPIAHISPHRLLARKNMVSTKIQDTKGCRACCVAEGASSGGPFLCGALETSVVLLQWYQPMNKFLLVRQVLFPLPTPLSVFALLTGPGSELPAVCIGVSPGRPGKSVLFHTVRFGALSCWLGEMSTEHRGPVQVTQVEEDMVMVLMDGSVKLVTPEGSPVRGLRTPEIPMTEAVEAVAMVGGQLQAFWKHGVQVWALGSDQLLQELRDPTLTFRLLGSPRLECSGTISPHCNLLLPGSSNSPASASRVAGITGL
UniProt O95835, sequence (whole entry, looked up): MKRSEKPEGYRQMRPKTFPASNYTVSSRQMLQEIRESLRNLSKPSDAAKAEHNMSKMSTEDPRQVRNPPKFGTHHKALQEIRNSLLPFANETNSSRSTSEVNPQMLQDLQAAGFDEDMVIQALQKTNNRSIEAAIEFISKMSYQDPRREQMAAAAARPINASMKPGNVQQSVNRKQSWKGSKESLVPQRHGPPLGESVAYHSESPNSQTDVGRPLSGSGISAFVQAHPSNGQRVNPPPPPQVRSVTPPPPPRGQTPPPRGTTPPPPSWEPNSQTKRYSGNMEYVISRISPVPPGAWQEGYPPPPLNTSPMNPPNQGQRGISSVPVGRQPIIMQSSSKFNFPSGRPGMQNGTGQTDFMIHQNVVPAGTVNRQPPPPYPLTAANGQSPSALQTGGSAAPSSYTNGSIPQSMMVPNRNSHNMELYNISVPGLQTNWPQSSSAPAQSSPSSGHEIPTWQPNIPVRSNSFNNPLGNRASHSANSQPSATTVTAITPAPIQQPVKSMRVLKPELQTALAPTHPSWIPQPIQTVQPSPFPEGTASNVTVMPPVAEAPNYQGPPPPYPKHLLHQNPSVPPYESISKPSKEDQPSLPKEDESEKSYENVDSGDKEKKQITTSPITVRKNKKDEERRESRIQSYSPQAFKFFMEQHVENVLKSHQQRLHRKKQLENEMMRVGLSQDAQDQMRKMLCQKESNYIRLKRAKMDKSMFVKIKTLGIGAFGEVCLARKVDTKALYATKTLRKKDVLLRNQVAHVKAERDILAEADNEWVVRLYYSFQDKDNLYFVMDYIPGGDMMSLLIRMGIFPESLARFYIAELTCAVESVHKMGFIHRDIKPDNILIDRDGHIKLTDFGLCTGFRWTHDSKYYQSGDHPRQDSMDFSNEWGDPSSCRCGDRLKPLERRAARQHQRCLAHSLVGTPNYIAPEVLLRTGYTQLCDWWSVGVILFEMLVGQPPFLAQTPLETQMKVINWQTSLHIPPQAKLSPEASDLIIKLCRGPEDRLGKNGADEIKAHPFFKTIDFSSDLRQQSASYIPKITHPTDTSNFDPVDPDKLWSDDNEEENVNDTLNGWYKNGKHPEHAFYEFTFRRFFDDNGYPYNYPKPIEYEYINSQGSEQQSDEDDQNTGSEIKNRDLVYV

Block 1
SMILES: C[C@H](NC(=O)c1cnc2n1[C@](C)(Cc1ccc(C#N)cc1)C(=O)N2c1cc(Cl)c(F)c(Cl)c1)C(=O)NC1(c2ccccn2)CC1
Observed: cell-free assay
Technique: competition with immobilised ligand
Tested at: 1 µM
Endpoint: remaining binding
target = Ribosomal protein S6 kinase alpha-5, C-terminal kinase domain (RPS6KA5, Homo sapiens, UniProt O75582); value = 100%
target = Cyclin-dependent kinase 9 (CDK9, Homo sapiens, UniProt P50750); value = 100%
target = Serine/threonine-protein kinase B-raf (BRAF, Homo sapiens, UniProt P15056); value = 100%
target = Death-associated protein kinase 1 (DAPK1, Homo sapiens, UniProt P53355); value = 100%
target = Mitotic checkpoint serine/threonine-protein kinase BUB1 (BUB1, Homo sapiens, UniProt O43683); value = 100%
target = Mitogen-activated protein kinase kinase kinase 7 (MAP3K7, Homo sapiens, UniProt O43318); value = 97%
target = LIM domain kinase 1 (LIMK1, Homo sapiens, UniProt P53667); value = 100%
target = cAMP-dependent protein kinase catalytic subunit alpha (PRKACA, Homo sapiens, UniProt P17612); value = 100%
target = Serine/threonine-protein kinase LATS1 (LATS1, Homo sapiens, UniProt O95835); value = 100%
target = Mitogen-activated protein kinase kinase kinase kinase 1 (MAP4K1, Homo sapiens, UniProt Q92918); value = 100%

Block 2
Species: mouse
Matrix: microsomes or S9
Tested at: 2 µM
Time: 0.5 h
Endpoint: remaining compound
SMILES = O=C(NCC1Cc2ccccc2CO1)c1cnn2c1OCCC2 (stereo not shown); value = 6.18%
SMILES = CCN1C(=O)CCN(S(=O)(=O)c2cn(C)cn2)CC12CCOCC2; value = 92.9%
SMILES = Cc1nnc2ccc(N3CCNc4ccccc4C3)nn12; value = 79.9%
SMILES = COc1cccc(-c2nc3cnccn3c2NCCC(=O)Nc2ccc3c(c2)OCCO3)c1; value = 3.02%

Block 3
Target: CREB3L4, bZIP domain (human)
Technique: DHFR protein complementation
Matrix: yeast
Notes: single substitutions, most at no-binding floor
Relative to: wild-type JUN-FOS pair
Direction: higher = stronger binding
Endpoint: binding fitness
Starting sequence: JUN, bZIP domain (human); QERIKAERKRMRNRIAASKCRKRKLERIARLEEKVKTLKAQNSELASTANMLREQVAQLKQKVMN; partner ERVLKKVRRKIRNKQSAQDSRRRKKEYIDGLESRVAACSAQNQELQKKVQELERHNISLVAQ
Substitution = E32N; value = -1.36 natural log
Substitution = L38T; value = -1.52 natural log
Substitution = Q41P; value = -1.46 natural log
Substitution = T37W; value = -1.44 natural log
Substitution = K39N; value = -1.5 natural log
Substitution = A46W; value = -1.39 natural log
Substitution = L59R; value = -1.45 natural log
Substitution = A49S; value = -1.53 natural log

Block 4
Target: Beta-1 adrenergic receptor (ADRB1, Homo sapiens, UniProt P08588)
UniProt P08588, sequence (whole entry, looked up): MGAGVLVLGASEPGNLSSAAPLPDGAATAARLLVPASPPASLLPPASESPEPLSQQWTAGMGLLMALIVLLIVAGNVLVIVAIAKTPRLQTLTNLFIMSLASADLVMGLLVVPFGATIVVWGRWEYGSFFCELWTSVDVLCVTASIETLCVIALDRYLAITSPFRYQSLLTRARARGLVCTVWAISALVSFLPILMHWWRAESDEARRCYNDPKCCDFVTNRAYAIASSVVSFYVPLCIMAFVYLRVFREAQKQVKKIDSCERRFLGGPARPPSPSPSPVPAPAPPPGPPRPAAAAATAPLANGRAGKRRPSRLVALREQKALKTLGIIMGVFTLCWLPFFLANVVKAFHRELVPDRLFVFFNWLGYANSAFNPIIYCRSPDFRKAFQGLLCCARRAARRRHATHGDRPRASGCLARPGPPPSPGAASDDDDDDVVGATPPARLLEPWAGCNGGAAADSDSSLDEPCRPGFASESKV
Action: antagonist
Endpoint: IC50
SMILES = c1cncc(-c2cc(-c3cccc(N4CCOCC4)c3)cn3cncc23)c1; value = ≥ 100 µM
SMILES = COc1ccccc1N1CCN(c2nc3c(C)cccn3c(=O)c2C=O)CC1; value = ≥ 100 µM
SMILES = Cc1cccc2ncc(-c3cccc(NC4CNC4)n3)n12; value = ≥ 100 µM

Some of these lines once more (block 2):
SMILES = COc1cccc(-c2nc3cnccn3c2NCCC(=O)Nc2ccc3c(c2)OCCO3)c1; value = 3.02%
SMILES = O=C(NCC1Cc2ccccc2CO1)c1cnn2c1OCCC2 (stereo not shown); value = 6.18%
